Experimental data of several laboratories.
Compare with care: the assays were run in different laboratories. Values joined by “and” are separate records of one study, mostly repeats; a detail may differ.
Partner: itself
B1: comFB 1-98 (Bacillus subtilis, UniProt P39146); chain MLVNSKEIVMKELLDRYMDQLHMACTCQVCQNDVLALSLNKVSPSYVTDFKKIAYTKAELVDKQKNTAMLVILAESAAVVSESPSDLCQTKQEEAFIN
B2: CAB1 1-367 (Saccharomyces cerevisiae, UniProt Q04430); chain MPRITQEISYNCDYGDNTFNLAIDIGGTLAKVVFSPIHSNRLMFYTIETEKIDKFMELLHSIIKEHNNGCYRMTHIIATGGGAFKFYDLLYENFPQIKGISRFEEMEGLIHGLDFFIHEIPDEVFTYNDQDGERIIPTSSGTMDSKAIYPYLLVNIGSGVSILKVTEPNNFSRVGGSSLGGGTLWGLLSLITGAQTYDQMLDWAQEGDNSSVDMLVGDIYGTDYNKIGLKSSAIASSFGKVFQNRMTSNKSLENNENKLYSSHESIEKNNGQMFKNPDICKSLLFAISNNIGQIAYLQAKINNIQNIYFGGSYTRGHLTTMNTLSYAINFWSQGSKQAFFLKHEGYLGAMGAFLSASRHSSTKKTST
B3: RPRD1A 134-312 (Homo sapiens, UniProt Q96P16); chain KPRKRTYEQIKVDENENCSSLGSPSEPPQTLDLVRALQDLENAASGDAAVHQRIASLPVEVQEVSLLDKITDKESGERLSKMVEDACMLLADYNGRLAAEIDDRKQLTRMLADFLRCQKEALAEKEHKLEEYKRKLARVSLVRKELRSRIQSLPDLSRLPNVTGSHMHLPFAGDIYSED
B4: HARS1 1-509 (Homo sapiens, UniProt P12081-1); chain MAERAALEELVKLQGERVRGLKQQKASAELIEEEVAKLLKLKAQLGPDESKQKFVLKTPKGTRDYSPRQMAVREKVFDVIIRCFKRHGAEVIDTPVFELKETLMGKYGEDSKLIYDLKDQGGELLSLRYDLTVPFARYLAMNKLTNIKRYHIAKVYRRDNPAMTRGRYREFYQCDFDIAGNFDPMIPDAECLKIMCEILSSLQIGDFLVKVNDRRILDGMFAICGVSDSKFRTICSSVDKLDKVSWEEVKNEMVGEKGLAPEVADRIGDYVQQHGGVSLVEQLLQDPKLSQNKQALEGLGDLKLLFEYLTLFGIDDKISFDLSLARGLDYYTGVIYEAVLLQTPAQAGEEPLGVGSVAAGGRYDGLVGMFDPKGRKVPCVGLSIGVERIFSIVEQRLEALEEKIRTTETQVLVASAQKKLLEERLKLVSELWDAGIKAELLYKKNPKLLNQLQYCEEAGIPLVAIIGEQELKDGVIKLRSVTSREEVDVRREDLVEEIKRRTGQPLCIC
B5: emrE (Escherichia coli, UniProt P23895); sequence looked up; chain MNPYIYLGGAILAEVIGTTLMKFSEGFTRLWPSVGTIICYCASFWLLAQTLAYIPTGIAYAIWSGVGIVLISLLSWGFFGQRLDLPAIIGMMLICAGVLIINLLSRSTPH
B6: hsp18 28-148 (Oenococcus oeni, UniProt P94898); sequence looked up; chain GPRDGLWESARHNNSIMRTDISENDKEYGLKIELPGLDKKDIKIDYSNDNLTVSGVLSSKAEEKDKKNNVVRSERRYGNYSRSYYVPGVDENKISAKYENGILNLTLPKSDESQTHHIEIQ
B7: dnaD 1-128 (Bacillus subtilis, UniProt P39787); chain GSHMKKQQFIDMQEQGTSTIPNLLLTHYKQLGLNETELILLLKIKMHLEKGSYFPTPNQLQEGMSISVEECTNRLRMFIQKGFLFIEECEDQNGIKFEKYSLQPLWGKLYEYIQLAQNQTQERKAEGEQKS
B8: ADAR1 127-end 127-1226 P193A (human, UniProt P55265); sequence looked up; chain SSHFQELSIYQDQEQRILKFLEELGEGKATTAHDLSGKLGTPKKEINRVLYSLAKKGKLQKEAGTPALWKIAVSTQAWNQHSGVVRPDGHSQGAPNSDPSLEPEDRNSTSVSEDLLEPFIAVSAQAWNQHSGVVRPDSHSQGSPNSDPGLEPEDSNSTSALEDPLEFLDMAEIKEKICDYLFNVSDSSALNLAKNIGLTKARDINAVLIDMERQGDVYRQGTTPPIWHLTDKKRERMQIKRNTNSVPETAPAAIPETKRNAEFLTCNIPTSNASNNMVTTEKVENGQEPVIKLENRQEARPEPARLKPPVHYNGPSKAGYVDFENGQWATDDIPDDLNSIRAAPGEFRAIMEMPSFYSHGLPRCSPYKKLTECQLKNPISGLLEYAQFASQTCEFNMIEQSGPPHEPRFKFQVVINGREFPPAEAGSKKVAKQDAAMKAMTILLEEAKAKDSGKSEESSHYSTEKESEKTAESQTPTPSATSFFSGKSPVTTLLECMHKLGNSCEFRLLSKEGPAHEPKFQYCVAVGAQTFPSVSAPSKKVAKQMAAEEAMKALHGEATNSMASDNQPEGMISESLDNLESMMPNKVRKIGELVRYLNTNPVGGLLEYARSHGFAAEFKLVDQSGPPHEPKFVYQAKVGGRWFPAVCAHSKKQGKQEAADAALRVLIGENEKAERMGFTEVTPVTGASLRRTMLLLSRSPEAQPKTLPLTGSTFHDQIAMLSHRCFNTLTNSFQPSLLGRKILAAIIMKKDSEDMGVVVSLGTGNRCVKGDSLSLKGETVNDCHAEIISRRGFIRFLYSELMKYNSQTAKDSIFEPAKGGEKLQIKKTVSFHLYISTAPCGDGALFDKSCSDRAMESTESRHYPVFENPKQGKLRTKVENGEGTIPVESSDIVPTWDGIRLGERLRTMSCSDKILRWNVLGLQGALLTHFLQPIYLKSVTLGYLFSQGHLTRAICCRVTRDGSAFEDGLRHPFIVNHPKVGRVSIYDSKRQSGKTKETSVNWCLADGYDLEILDGTRGTVDGPRNELSRVSKKNIFLLFKKLCSFRYRRDLLRLSYGEAKKAARDYETAKNYFKKGLKDMGYGNWISKPQEEKNFYLCPV
B9: Npm1 (Mus musculus, UniProt Q61937); sequence looked up; chain MEDSMDMDMSPLRPQNYLFGCELKADKDYHFKVDNDENEHQLSLRTVSLGAGAKDELHIVEAEAMNYEGSPIKVTLATLKMSVQPTVSLGGFEITPPVVLRLKCGSGPVHISGQHLVAVEEDAESEDEDEEDVKLLGMSGKRSAPGGGNKVPQKKVKLDEDDEDDDEDDEDDEDDDDDDFDEEETEEKVPVKKSVRDTPAKNAQKSNQNGKDLKPSTPRSKGQESFKKQEKTPKTPKGPSSVEDIKAKMQASIEKGGSLPKVEAKFINYVKNCFRMTDQEAIQDLWQWRKSL
B10: TBK1 1-657 D135N (Homo sapiens, UniProt Q9UHD2); sequence looked up; chain MQSTSNHLWLLSDILGQGATANVFRGRHKKTGDLFAIKVFNNISFLRPVDVQMREFEVLKKLNHKNIVKLFAIEEETTTRHKVLIMEFCPCGSLYTVLEEPSNAYGLPESEFLIVLRDVVGGMNHLRENGIVHRNIKPGNIMRVIGEDGQSVYKLTDFGAARELEDDEQFVSLYGTEEYLHPDMYERAVLRKDHQKKYGATVDLWSIGVTFYHAATGSLPFRPFEGPRRNKEVMYKIITGKPSGAISGVQKAENGPIDWSGDMPVSCSLSRGLQVLLTPVLANILEADQEKCWGFDQFFAETSDILHRMVIHVFSLQQMTAHKIYIHSYNTATIFHELVYKQTKIISSNQELIYEGRRLVLEPGRLAQHFPKTTEENPIFVVSREPLNTIGLIYEKISLPKVHPRYDLDGDASMAKAITGVVCYACRIASTLLLYQELMRKGIRWLIELIKDDYNETVHKKTEVVITLDFCIRNIEKTVKVYEKLMKINLEAAELGEISDIHTKLLRLSSSQGTIETSLQDIDSRLSPGGSLADAWAHQEGTHPKDRNVEKLQVLLNCMTEIYYQFKKDKAERRLAYNEEQIHKFDKQKLYYHATKAMTHFTDECVKKYEAFLNKSEEWIRKMLHLRKQLLSLTNQCFDIEEEVSKYQEYTNELQET
B11: RBKS (Homo sapiens, UniProt Q9H477); sequence looked up; chain MAASGEPQRQWQEEVAAVVVVGSCMTDLVSLTSRLPKTGETIHGHKFFIGFGGKGANQCVQAARLGAMTSMVCKVGKDSFGNDYIENLKQNDISTEFTYQTKDAATGTASIIVNNEGQNIIVIVAGANLLLNTEDLRAAANVISRAKVMVCQLEITPATSLEALTMARRSGVKTLFNPAPAIADLDPQFYTLSDVFCCNESEAEILTGLTVGSAADAGEAALVLLKRGCQVVIITLGAEGCVVLSQTEPEPKHIPTEKVKAVDTTGAGDSFVGALAFYLAYYPNLSLEDMLNRSNFIAAVSVQAAGTQSSYPYKKDLPLTLF
B12: MIB1 936-1006 (Homo sapiens, UniProt Q86YT6); sequence looked up; chain KDKDNTNVNADVQKLQQQLQDIKEQTMCPVCLDRLKNMIFLCGHGTCQLCGDRMSECPICRKAIERRILLY
B13: aqpZ 1-231 K4A (Escherichia coli, UniProt P60844); chain MFRALAAECFGTFWLVFGGCGSAVLAAGFPELGIGFAGVALAFGLTVLTMAFAVGHISGGHFNPAVTIGLWAGGRFPAKEVVGYVIAQVVGGIVAAALLYLIASGKTGFDAAASGFASNGYGEHSPGGYSMLSALVVELVLSAGFLLVIHGATDKFAPAGFAPIAIGLALTLIHLISIPVTNTSVNPARSTAVAIFQGGWALEQLWFFWVVPIVGGIIGGLIYRTLLEKRD
B14: Nefl 85-543 (Mus musculus, UniProt P08551); sequence looked up; chain SIRTQEKAQLQDLNDRFASFIERVHELEQQNKVLEAELLVLRQKHSEPSRFRALYEQEIRDLRLAAEDATNEKQALQGEREGLEETLRNLQARYEEEVLSREDAEGRLMEARKGADEAALARAELEKRIDSLMDEIAFLKKVHEEEIAELQAQIQYAQISVEMDVSSKPDLSAALKDIRAQYEKLAAKNMQNAEEWFKSRFTVLTESAAKNTDAVRAAKDEVSESRRLLKAKTLEIEACRGMNEALEKQLQELEDKQNADISAMQDTINKLENELRSTKSEMARYLKEYQDLLNVKMALDIEIAAYRKLLEGEETRLSFTSVGSITSGYSQSSQVFGRSAYSGLQSSSYLMSARSFPAYYTSHVQEEQTEVEETIEATKAEEAKDEPPSEGEAEEEEKEKEEGEEEEGAEEEEAAKDESEDTKEEEEGGEGEEEDTKESEEEEKKEESAGEEQVAKKKD
B15: PCK1 S62D/T66E (Arabidopsis thaliana, UniProt Q9T074); sequence looked up; chain MSAGNGNATNGDGGFSFPKGPVMPKITTGAAKRGSGVCHDDSGPTVNATTIDELHSLQKKRDAPTEPINQNAAAAFAAVSEEERQKIQLQSISASLASLTRESGPKVVRGDPAEKKTDGSTTPAYAHGQHHSIFSPATGAVSDSSLKFTHVLYNLSPAELYEQAIKYEKGSFITSNGALATLSGAKTGRAPRDKRVVRDATTEDELWWGKGSPNIEMDEHTFMVNRERAVDYLNSLEKVFVNDQYLNWDPENRIKVRIVSARAYHSLFMHNMCIRPTQEELESFGTPDFTIYNAGQFPCNRYTHYMTSSTSVDLNLARREMVILGTQYAGEMKKGLFSVMHYLMPKRRILSLHSGCNMGKDGDVALFFGLSGTGKTTLSTDHNRYLIGDDEHCWTETGVSNIEGGCYAKCVDLSREKEPDIWNAIKFGTVLENVVFDEHTREVDYSDKSVTENTRAAYPIEFIPNAKIPCVGPHPTNVILLACDAFGVLPPVSKLNLAQTMYHFISGYTALVAGTEDGIKEPTATFSACFGAAFIMLHPTKYAAMLAEKMKSQGATGWLVNTGWSGGSYGVGNRIKLAYTRKIIDAIHSGSLLKANYKKTEIFGFEIPTEIEGIPSEILDPVNSWSDKKAHKDTLVKLGGLFKKNFEVFANHKIGVDGKLTEEILAAGPIF

B1 (comFB 1-98) — subunits per oligomer (SEC-MALS): 2
B2 (CAB1 1-367) — subunits per oligomer (crystal structure): 2
B3 (RPRD1A 134-312) — subunits per oligomer (AUC; 4 °C): 2
B4 (HARS1 1-509) — subunits per oligomer (SEC): 2
B5 (emrE) — subunits per oligomer (AUC): 2
B6 (hsp18 28-148) — subunits per oligomer (cross-linking): 2 subunits
ATP2A2 SERCA2a (Homo sapiens, UniProt P16615-2) — subunits per oligomer (SEC; cell lysate; not purified, endogenous): 2
B7 (dnaD 1-128) — subunits per oligomer (SEC): 4
B8 (ADAR1 127-end 127-1226 P193A) — subunits per oligomer (SEC): 2
B9 (Npm1) — subunits per oligomer (native PAGE; not purified; not purified): 5
B10 (TBK1 1-657 D135N) — subunits per oligomer (SEC-MALS): 2
B11 (RBKS) — subunits per oligomer (mass photometry): 2
B12 (MIB1 936-1006) — subunits per oligomer (crystal structure): 2
B13 (aqpZ 1-231 K4A) — subunits per oligomer (native MS): 4
B14 (Nefl 85-543) — subunits per oligomer (AUC, electron microscopy): 2 and 4
B15 (PCK1 S62D/T66E) — subunits per oligomer (SEC): 6 and 12

Repeated from above:
ATP2A2 SERCA2a (Homo sapiens, UniProt P16615-2) — subunits per oligomer (SEC; cell lysate; not purified, endogenous): 2
B7 (dnaD 1-128) — subunits per oligomer (SEC): 4
